Assay results collected from several papers.
Protocols differ between the studies behind these lines. “And” joins repeats or separate records; there may be more than shown. Numbers after ± are the reported error.

With `C[C@H](Nc1ccc2c(c1)OCCn1cc(N3C(=O)OC[C@H]3C(F)F)nc1-2)C(N)=O` the IC50 was 21.9 nM (EFM-19; growth rate inhibition, CellTiter-Glo; 120 h).
The IC50 of `COc1ncccc1Cn1nc(-c2ccc(CO)o2)c2ccccc21` is reported as 230 nM (RBE; cell viability, CellTiter-Glo).
`Cn1cc(Nc2nccc(-c3ccc4c(c3)CN(C3COC3)CC[C@H]4NC(=O)c3cn(C(C)(C)C)nn3)n2)cn1` — result for “pathway activation z-score”: 1.63 (mouse splenic B cells; refers to: IL-9 signalling; 30 mg/kg, IgD-activated in vivo; baseline: vehicle, direction not given).
The protein level of `CC/C(=N\NC(=O)NCc1cccc(O)c1)c1ccc(O)c(C)c1O` is reported as 1.06 ± 0.43 (SK-OV-3; Western blot, refers to: TAZ; 1 µM, 1 h, 3D culture, gellan gum, unit not given; baseline: β-actin).
The cell confluence of `NC(=O)NOCCCCCCCCCC[P+](c1ccccc1)(c1ccccc1)c1ccccc1.O=C([O-])C(F)(F)F` is reported as 84.7% (HCT-116; cell growth, live-cell imaging; 0.3 µM, control at 90% confluence).
`CCn1c2ccc(CNCCOCCOCCOCCC(=O)NCCOc3ccc(CCc4nc5cc(-c6c(C)noc6C)ccc5n4CCN4CCOCC4)cc3F)cc2c2ccc(-c3cc(C)cs3)cc21` — result for “GADD45A mRNA level”: “increased” (NCI-H1299 expressing p53 Y220C; RT-qPCR; 3 µM, 24 h; baseline: DMSO).
`O=C(/C=C/C=C/C=C/C1CCCCC1)NC1=C[C@@](O)(/C=C/C=C/C=C/C(=O)NC2=C(O)CCC2=O)[C@@H]2O[C@@H]2C1=O` has a GI50 of 24000 nM (NCI-H647; cell growth, CellTiter-Glo; 78 h).
The beat rate of `Cc1[nH]nc2ccc(-c3cncc(OC[C@@H](N)Cc4ccccc4)c3)cc12` is reported as 110% (hiPSC-derived cardiomyocytes (iCell); impedance (xCELLigence Cardio); concentration not given, 2 h; baseline: control).
For `NC(=O)NO`, the cell confluence was 11.4 ± 2.17% (HCT-116; cell growth, live-cell imaging; 400 µM, control at 90% confluence).
The sarcomere length of `CC(C)NCC(O)c1ccc(O)c(O)c1` (stereo not drawn) is reported as 1.78 µm (mouse ventricular cardiomyocytes; dose not given, 0.079 s).
For `NC(=O)NOCCCCCCCCCCCCCCCC[P+](c1ccccc1)(c1ccccc1)c1ccccc1.O=C([O-])C(F)(F)F`, the cell confluence was 33.7% (HCT-116; cell growth, live-cell imaging; 0.6 µM, control at 90% confluence).
The IC50 of `Nc1ccn([C@@H]2O[C@H](CO)[C@@H](O)C2(F)F)c(=O)n1` is reported as 97 nM (CFPAC; cell viability, MTT; mutant KRAS liver metastasis).
For `CCCCN1C[C@H](O)[C@@H](O)[C@@H](O)[C@H]1CO`, the IC50 was 21200 nM (sample H patient fibroblasts; Gb3 level lowering, LC-MS/MS, refers to: Gb3 d18:1/24:1; 216 h).
With `COc1ccc2c(N(C)c3ccc(/C(C)=N/OCCN)cc3)c3c(Cl)coc3nc2c1` the growth inhibition was roughly 60% (PC-3, docetaxel-sensitive; trypan blue exclusion; 1 µM, 72 h).
The cell confluence of `NC(=O)NOCCCCCCCCCCCCCCCCCCCC[P+](c1ccccc1)(c1ccccc1)c1ccccc1.O=C([O-])C(F)(F)F` is reported as 4.2 ± 0.47% (HCT-116; cell growth, live-cell imaging; 1 µM, control at 90% confluence).
For `Nc1cccc2c1C(=O)N(C1CCC(=O)NC1=O)C2=O` (stereo not drawn), “surface marker level” read 189% (RPMI-8226; flow cytometry, refers to: CD138; concentration not given; baseline: comparator compound alone).
The cell growth of `O=C(Nc1nnc2n3c(nc(-c4ccc(Cl)cc4)c1-2)SCC3=O)c1ccccc1` is reported as 98.9% (NCI-H322M; SRB; 10 µM, NCI60 single-dose screen; baseline: untreated).
`CCN(CC)CCCC(C)Nc1ccnc2cc(Cl)ccc12` (stereo not drawn) gave a funny current of -15.1 pA and -23.7 pA and -48.6 pA (hiPSC-derived cardiomyocytes; perforated patch voltage clamp; 5 µM, together with: hyperpolarizing step to -120 mV).
For `Cc1cnc(NC2CCOCC2)nc1-n1cnc(C(=O)NC(CN)c2cc(F)cc(Cl)c2)c1` (stereo not drawn), “G2 phase cells” read 20.3% (Rec1; flow cytometry; 1 µM, 48 h).
With `COc1ccc(-n2nc(C(C)=O)s/c2=N\N=C(/C)c2ccc(NC(=O)c3ccc(C)cc3)cc2)cc1` the toxicity was 91.8% (MCF7; 0.625 µM).
The fold change of `Cn1c(Nc2nc3ccc(C(F)(F)F)cc3s2)nc2cc(C(=O)NCCOCCO)ccc21` is reported as 3.02 (SH-SY5Y; RNA-seq, refers to: UBASH3B mRNA; 5 µM, 5 h; baseline: untreated cells).
With `CCN(Cc1ccccc1)c1ccc(CO)c(Cl)c1` the IC50 was 120 nM (RBE; cell viability, CellTiter-Glo).
`C[C@H]1[C@@H](O)O[C@@H]2O[C@@]3(C)CC[C@H]4[C@H](C)CC[C@@H]1[C@@]24OO3` gave a viable cells of 95.6% (THP-1; annexin V/PI flow cytometry, refers to: annexin V-/PI-; 1.6 µM, 24 h).
`OCc1ccc(N2CCc3ccccc3C2)cc1Cl` gave an IC50 of 230 nM (RBE; cell viability, CellTiter-Glo).
`C=Cc1c(C)c2cc3nc(c(CC(=O)O)c4[nH]c(cc5nc(cc1[nH]2)C(C)=C5CC)c(C)c4C(=O)O)[C@@H](CCC(=O)O)[C@@H]3C`: “late apoptotic and necrotic cells” 26.5% and 27.3% and 27.9% (4T1; Annexin V-FITC/PI flow cytometry; concentration not given).
With `COc1cnc2cccc(N3CCc4c(cc(Cn5ccnc5C)cc4-c4cn(C)nc4C(F)(F)F)C3=O)c2c1` the EC50 was 9700 nM (Rec1; cell growth, inhibitor; 120 h).
For `CCCCc1oc2ccc(NS(C)(=O)=O)cc2c1C(=O)c1ccc(OCCCN(CCCC)CCCC)cc1`, the fold change was 3.4 fold (human embryonic stem cell aggregates; mRNA level, microarray, refers to: DKK1; 0.5 µM, 120 h; baseline: untreated, down-regulated).
The EC50 of `CCn1cc(-c2cc(Cn3ccoc3=N)cc3c2CCN([C@@H](C)c2cc(OC)ccn2)C3=O)c(C(F)(F)F)n1` is reported as 388 nM (SU-DHL10; cell growth, inhibitor; 120 h).
For `Cc1cccc(C)c1-n1nc(C)c(C(=O)Nc2ccc3ccccc3n2)c1C`, the inhibition was less than 50% (Wnt-HEK293; Wnt/β-catenin signalling, inhibitor, luciferase reporter; 1 µM).
`Cn1cc(-c2ccc(-c3cncc(Cl)c3N3CCC4(CCNC4=O)CC3)cc2)cn1` — result for “log2 fold change”: 3.33 (COLO 205; gene expression, microarray, refers to: TLE2 mRNA; concentration not given, 2 h; baseline: untreated cells).
With `COc1c(Cl)cc2c([nH]c3cnccc32)c1NC(=O)c1cccnc1C` the cell index was 98.5% (hiPSC-derived cardiomyocytes (iCell); impedance; concentration not given, 24 h; baseline: control).
With `C=Cc1c2[n-]c(c1C)/C=c1\[n-]/c(c(C)c1C=C)=C\c1[n-]c(c(CCC(=O)O)c1C)/C=c1\[n-]c(c(C)c1CCC(=O)O)=C2.[Sn+4]` the fold change was 2.24 (SH-SY5Y; RNA-seq, refers to: ELL2 mRNA; 5 µM, 5 h; baseline: untreated cells).
The EC50 of `CCn1cc(-c2cc(Cn3ccnc3)cc3c2CCN([C@H](c2cc(OC)ccn2)C2CC2)C3=O)c(C(F)(F)F)n1` is reported as 1150 nM (SNU-16; cell growth, inhibitor; 120 h).
For `CCOC(=O)c1ccc(-c2nn(Cc3ccccc3)c3ccccc23)o1`, the inhibition was 35% (RBE; cell viability; 46 µM).
`Nc1nc(Cn2nnc(-c3ccccc3F)n2)nc(N2CCOCC2)n1` — result for protein level: “decreased” (BV-2; refers to: caspase-8; 30 nM, together with: high glucose; baseline: high glucose).
With `NCc1ccc(-c2nn(Cc3ccccc3)c3ccccc23)o1` the IC50 was 2340 nM and 2410 nM (RBE; cell viability, CellTiter-Glo).
With `CN(C)CC(=O)N1CCC(c2ccc(NC(=O)c3nc(C#N)c[nH]3)c(C3=CCCCC3)c2)CC1` the beat amplitude was 105% (hiPSC-derived cardiomyocytes (iCell); impedance (xCELLigence Cardio); concentration not given, 2 h; baseline: control).
`Nc1ncnc2c1ncn2[C@@H]1O[C@H](CO)[C@@H](O)[C@H]1O` — result for “log2 fold change”: 6.6 and 7.2 and 6.7 (activated human T cells; refers to: dihydroorotate; 50 µM; baseline: DMSO).
The viability of `Cc1cccc(-c2[nH]c(CNc3ccccc3F)nc2-c2ccc3ncnn3c2)n1` is reported as 20% (bone marrow CD138+ myeloma cells; XTT; 0.8 µM, phenol red-free RPMI).
